Measurements gathered from unrelated publications.
Numbers after ± are the reported error.
APP: Amyloid-beta precursor protein (APP, Homo sapiens, UniProt P05067)
Tripartite terminase subunit 3 C-terminal nuclease domain: Tripartite terminase subunit 3, C-terminal nuclease domain (Human betaherpesvirus 5, UniProt P16732)

COc1ccc(S(=O)(=O)Oc2ccc3c(c2)Oc2nc4c(c(N)c2C3c2cccc(OC)c2)CCCC4)cc1 (stereo not drawn) gave an inhibition of 2.6% (APP; Aβ42 self-aggregation, inhibitor, thioflavin T fluorescence; 0.01 µM).
CC[C@H](C)[C@@H]1NC(=O)[C@@H]2CCCN2C(=O)[C@H](CC(C)C)NC(=O)[C@H](CC(C)C)NC(=O)CNC(=O)[C@@H](NC(=O)[C@@H](NC(=O)[C@H](CC(=O)O)NC(=O)CNC(=O)[C@@H](NC(=O)[C@H](C)NC(=O)CNC(=O)[C@H](CCCCN)NC(=O)[C@H](CC(C)C)NC(=O)[C@H](CC(C)C)NC(=O)[C@H](CCCCN)NC(=O)CNC(=O)[C@@H](NC(=O)[C@@H](N)CC(C)C)C(C)C)C(C)C)C(C)C)CSSC[C@@H](C(=O)O)NC1=O — result for “log2 fold change”: -0.581 (RNA-seq, refers to: Them6; mouse, traumatic brain injury model, frontal cortex and hippocampus; dose not given; baseline: TBI alone).
O=S(=O)(Nc1ccc2c(c1)B(O)OC2)c1ccc(Cl)cc1 gave an inhibition of no more than 10% (Genome polyprotein, NS2B-NS3 protease (dengue virus type 2, UniProt P29990); enzyme activity, FRET; dengue virus serotype 2; 50 µM, together with: substrate 50 µM).
Under “log2 fold change”, Oc1ccc2c3c1O[C@H]1[C@@H](O)CC[C@@]4(O)[C@@H](C2)N(CC2CCC2)CC[C@]314 is recorded as 0.523 (ADGRG2 (Homo sapiens, UniProt Q8IZP9); β-arrestin recruitment, TANGO luminescence, refers to: GPR64; concentration not given; baseline: basal luminescence).
The inhibition of CCCCCC(=O)Nc1ccc2c(c1)B(O)OC2 is reported as no more than 10% (Genome polyprotein, NS2B-NS3 protease (dengue virus type 2, UniProt P29990); enzyme activity, FRET; dengue virus serotype 2; 50 µM, together with: substrate 50 µM).
With Cc1ncc(C)n2nc(/C=C/c3nc(N4CCCC4)cc(N4CCOCC4)n3)nc12 the inhibition was -22% (Cacna1b (Rattus norvegicus, UniProt Q02294); binding; 10 µM).
CC[C@H](C)[C@H](NC(=O)[C@H](Cc1ccccc1)NC(=O)[C@H](CCC(=O)O)NC(=O)[C@H](CCCNC(=N)N)NC(=O)[C@H](C)NC(=O)[C@H](C)NC(=O)[C@H](CCC(N)=O)NC(=O)[C@H](CCC(=O)O)NC(=O)[C@H](CCC(=O)O)NC(=O)[C@H](CC(C)C)NC(=O)[C@H](Cc1ccc(O)cc1)NC(=O)[C@H](CO)NC(=O)[C@H](CO)NC(=O)[C@@H](NC(=O)[C@H](CC(=O)O)NC(=O)[C@H](CO)NC(=O)[C@@H](NC(=O)[C@H](Cc1ccccc1)NC(=O)[C@@H](NC(=O)CNC(=O)[C@H](CCC(=O)O)NC(=O)[C@H](C)NC(=O)CCc1c[nH]cn1)[C@@H](C)O)[C@@H](C)O)C(C)C)C(=O)N[C@@H](C)C(=O)N[C@@H](Cc1c[nH]c2ccccc12)C(=O)N[C@@H](CC(C)C)C(=O)N[C@H](C(=O)N[C@@H](CCCNC(=N)N)C(=O)NCC(=O)N[C@@H](CCCNC(=N)N)C(=O)N[C@@H](CCCCNC(=O)COCCOCCNC(=O)COCCOCCNC(=O)CC[C@H](NC(=O)CCCCCCCCCCCCCCCCC(=O)O)C(=O)O)C(=O)NCC(=O)NCC(=O)N[C@@H](CO)C(=O)N[C@@H](CCCCNc1c(NCCCCCN(O)C(=O)CCC(=O)NCCCCCN(O)C(=O)CCC(=O)NCCCCCN(O)C(C)=O)c(=O)c1=O)C(=O)O)C(C)C [zirconium-89 labelled] has a tissue uptake of 0.05 %ID/g (rat, muscle; iv, 3 nmol/kg, 168 h, ex vivo).
The inhibition of CN1CCN(c2cc(-c3ccncc3)c(-c3ccc4ccccc4c3)nn2)CC1 is reported as 25.3% (DRD5 (Homo sapiens, UniProt P21918); antagonist, FLIPR; 10 µM).
The tissue uptake of CC(C)C[C@@H]1NC(=O)[C@H](CC(C)C)NC(=O)[C@H](Cc2c[nH]c3ccccc23)NC(=O)[C@H](CO)NC(=O)[C@H](Cc2c[nH]c3ccccc23)NC(=O)[C@@H]2CCCN2C(=O)[C@H](CC(C)C)NC(=O)[C@H](Cc2c[nH]cn2)NC(=O)[C@@H]2CCCN2C(=O)[C@H](CC(N)=O)NC(=O)[C@H](C)NC(=O)[C@H](Cc2ccc(O)cc2)NC(=O)[C@H](CS)NC(=O)[C@H](CCCCNC(=O)CN2CCN(CC(=O)O)CCN(CC(=O)O)CCN(CC(=O)O)CC2)NC1=O [lutetium-177 labelled] is reported as 0.08 ± 0.03 %ID (Balb/c mouse, female, 4T1 tumour, lung; intravenous, 3.7 MBq, 4 h).
The inhibition of c1ccc(C(NCCNC(c2ccccc2)c2ccccc2)c2ccccc2)cc1 is reported as -1% (Cyclin-dependent kinase 3, with cyclin E (CDK3, Homo sapiens, UniProt Q00526); enzyme activity; 10 µM, Eurofins selectivity panel).
Cc1cccc(COc2cccc(C(=O)Nc3ccc4c(c3)B(O)OC4)c2)c1 gave an inhibition of 18 ± 6% (Genome polyprotein, NS2B-NS3 protease (West Nile virus, UniProt P06935); enzyme activity, FRET; 50 µM, together with: substrate 50 µM).
Under inhibition, COC1=C(N)C(=O)c2nc(-c3nc(C(=O)O)c(C)c(-c4ccc(OC)c(OC)c4O)c3N)ccc2C1=O is recorded as “inhibited” (SENP1 (Homo sapiens, UniProt Q9P0U3); RanGAP1-SUMO1 isopeptide cleavage, SDS-PAGE; 2 µM, together with: SENP1 5 nM).
With C[C@@H](O)[C@@H](CO)NC(=O)[C@@H](CCCNC(=N)N)NC(=O)[C@@H]1CCCN1C(=O)[C@@H]1CSSC[C@H](NC(=O)[C@H](Cc2ccccc2)NC(=O)CN2CCN(CC(=O)O)CCN(CC(=O)O)CCN(CC(=O)O)CC2)C(=O)N[C@@H](Cc2ccc(O)cc2)C(=O)N[C@@H](Cc2ccccc2)C(=O)N[C@@H](CCC(N)=O)C(=O)N[C@@H](CC(N)=O)C(=O)N1 [gallium-68 labelled] the tissue uptake was 0.7 %ID/g (Wistar rat, lungs; intravenous, 8 MBq, 30 min, group mean).
For Nc1ccncc1, the inhibition was -2% (Voltage-gated potassium channel, KQT; KCNQ2(Kv7.2)/KCNQ3(Kv7.3) (KCNQ3/KCNQ2, Homo sapiens, UniProt O43525+O43526); ion current, antagonist, automated patch clamp; HEK293; 10 µM).
For Nc1ncnc2c1ncn2[C@@H]1O[C@@H]2COP(=O)(O)O[C@H]3[C@@H](O)[C@H](n4cnc5c(=O)[nH]cnc54)O[C@@H]3COP(=O)(O)O[C@H]2[C@H]1O, “pathway fold enrichment” read 30.6 (HFF-1; RNA sequencing, refers to: OAS antiviral response; upregulated pathway; baseline: Zika virus alone).
O=C(Nc1ccc2c(c1)B(O)OC2)c1cccc(OCc2c(Cl)cccc2Cl)c1 has an inhibition of 26 ± 6% (Genome polyprotein, NS2B-NS3 protease (dengue virus type 2, UniProt P29990); enzyme activity, FRET; dengue virus serotype 2; 50 µM, together with: substrate 50 µM).
With Cc1cc(C)cc(COc2cc3c(cc2OCc2cc(C)cc(C)c2)[C@H]2C[C@](O)(Cc4cn(-c5ccc(S(=O)(=O)F)cc5)nn4)C[C@H](C)N2CC3)c1 the inhibition was 87.6% (Rab GDP dissociation inhibitor beta, with Rab1A (Homo sapiens, UniProt P50395); GDI2-Rab1A interaction, NanoLuc complementation; 6.25 µM).
With CC(=O)N[C@@H]1C(N=[N+]=[N-])C[C@](OCC2O[C@@H](Oc3ccc([N+](=O)[O-])cc3)C(O)C(O)[C@H]2O)(C(=O)O)OC1[C@H](O)[C@H](O)CO (stereo partly drawn) the inhibition was 11.6 ± 6.7% (Sialidase A (nanA, Streptococcus pneumoniae, UniProt P62575); 8 µM, pH 6).
COc1ccc(N2C(=O)N(c3c(C)cccc3Cl)Cc3cnc(Nc4ccc(C5CCN(C)CC5)cc4OC)nc32)nc1 gave an inhibition of 96% (TXK (Homo sapiens, UniProt P42681); kinase activity; 0.5 µM).
The inhibition of O=c1[nH]c2sc3c(c2c(=O)n1O)CCNC3 is reported as 72% (Tripartite terminase subunit 3 C-terminal nuclease domain; endonuclease activity, ELISA; 20 µM, together with: dsDNA).
COc1cc2c(Oc3ccc4[nH]c(C)cc4c3F)ccnc2cc1OCC1(N)CC1 — result for “grade 1 or 2 Nausea”: 0% (paediatric recurrent refractory sarcoma; 8 mg).
With O=C(Nc1cccnn1)N1CCC(=Cc2cccc(Oc3ccc(C(F)(F)F)cn3)c2)CC1 the inhibition was -3% (ZAP70 (Homo sapiens, UniProt P43403); kinase activity, inhibitor; 10 µM, human, together with: poly(Glu,Tyr)).
C[C@H]1CN(c2n[nH]c3nc(N[C@H]4CC[C@H](NS(=O)(=O)CCC(F)(F)F)CC4)ncc23)CCO1 has a remaining binding of 0.86 (CDK9 (Homo sapiens, UniProt P50750); Kinobeads competition; HEK293, K562, placenta lysate; 20 µM, unit not given; baseline: vehicle).
Under “any SAE incidence”, CO[C@H]1C[C@@H]2CC[C@@H](C)[C@@](O)(O2)C(=O)C(=O)N2CCCC[C@H]2C(=O)O[C@H]([C@H](C)C[C@@H]2CC[C@@H](OC(=O)NCCOCCOCCOCCOCCOCCOCCOCCOCCC(=O)N3CCc4cc(Cn5nc(-c6ccc7oc(N)nc7c6)c6c(N)ncnc65)ccc4C3)[C@H](OC)C2)C[C@@H](O)[C@H](C)/C=C(\C)[C@@H](O)[C@@H](OC)C(=O)[C@H](C)C[C@H](C)/C=C/C=C/C=C/1C is recorded as 37.5% (phase 1 dose escalation; advanced solid tumour patients; intravenous, 8 mg weekly, grade ≥3).
For O=c1[nH]c2cc(-c3ccccc3)ccc2c(=O)n1O, the inhibition was 97% (Tripartite terminase subunit 3 C-terminal nuclease domain; endonuclease activity, ELISA; 20 µM, together with: dsDNA).
The inhibition of O=C(Nc1cccc(B(O)O)c1)c1cccc(OCc2ccccc2)c1 is reported as no more than 10% (Genome polyprotein, NS2B-NS3 protease (dengue virus type 2, UniProt P29990); enzyme activity, FRET; dengue virus serotype 2; 50 µM, together with: substrate 50 µM).
CC(C)N1CCC[C@H]1CNC(=O)c1cn(C2CCCC2)c(=O)c2c1c1ccccc1n2C gave an inhibition of -2% (dopamine D4.2 receptor, human; radioligand binding; 10 µM).
CNC1(c2ccccc2Cl)CCCCC1=O (racemic) has an inhibition of -18% (SLC6A2 (Homo sapiens, UniProt P23975); radioligand binding, antagonist, radioligand displacement; 30 µM).
For CN1CCN(c2nc(N)c3ccccc3n2)CC1, the inhibition was 4.6% (GABA-A receptor; GABA-A site (alpha1/beta2 interface), with gamma-2 subunit (Homo sapiens, UniProt P14867+P47870); radioligand binding; 0.1 µM).
For COc1cc(/C=C/C(=O)CC(=O)/C=C/c2ccc(O)c(OC)c2)ccc1O, the inhibition was 15% (APP; Aβ42 self-aggregation, inhibitor, thioflavin T fluorescence; 1 µM).
For COc1cc(Nc2ncc(F)c(Nc3ccc4c(n3)NC(=O)C(C)(C)O4)n2)cc(OC)c1OC, the inhibition was 30% (PRKCQ (Homo sapiens, UniProt Q04759); KINOMEscan; 10 µM).
For Cc1ccc(C(C)Nc2nc(N3CCNCC3)nc3ccccc23)cc1 (stereo not drawn), the maximum response was -11.1% (Vero-E6; CellTiter-Glo ATP; 72 h, retest 8-point duplicates; baseline: DMSO 0%, hyamine -100%, more negative, more toxic).
O=C(Nc1cnccc1Cl)N1CCN(Cc2ccc3c(c2)OC(F)(F)O3)CC1 has an inhibition of 13% (dopamine D4.2 receptor, human; binding; 10 µM, together with: [3H]spiperone).
CN(CCN1CCC(OC(=O)Nc2ccccc2-c2ccccc2)CC1)C(=O)c1ccc(CN2CCC(C(N)=O)CC2)cc1 gave an inhibition of 11% (rat α2 adrenoceptor non-selective; radioligand binding; 1 µM, together with: [3H]RX821002 0.5 nM).
The inhibition of O=C(Nc1ccc2c(c1)B(O)OC2)c1ccc(OCc2ccccc2)cc1 is reported as 10 ± 7% (Genome polyprotein, NS2B-NS3 protease (dengue virus type 2, UniProt P29990); enzyme activity, FRET; dengue virus serotype 2; 50 µM, together with: substrate 50 µM).
O=c1[nH]c2c3c(sc2c(=O)n1O)CCCC3 gave an inhibition of 82% (Tripartite terminase subunit 3 C-terminal nuclease domain; endonuclease activity, ELISA; 20 µM, together with: dsDNA).
With Nc1c2c(nc3c1C(c1ccc(Cl)c(Cl)c1)c1ccc(OCC(=O)c4ccccc4)cc1O3)CCCC2 (stereo not drawn) the inhibition was 44% (APP; Aβ42 self-aggregation, inhibitor, thioflavin T fluorescence; 1 µM).
With O=C(Nc1ccc2c(c1)B(O)OC2)c1cccc(OCc2ccccc2)c1 the inhibition was 38 ± 9% (Genome polyprotein, NS2B-NS3 protease (West Nile virus, UniProt P06935); enzyme activity, FRET; 50 µM, together with: substrate 50 µM).
For O=C(c1ccc(Cl)cc1)N1CCN2C(=O)N(OC(=O)N3CCOc4ccccc43)C(=O)C2C1 (stereo not drawn), the median ratio was 1.14 (LYPLAL1 (Homo sapiens, UniProt Q5VWZ2); enzyme activity, inhibitor, MS-based ABPP; SW-620 in situ; 10 µM, 2 h, 37 °C; baseline: compound over DMSO, lower = stronger inhibition).
O=C(NCc1ccc(B(O)O)cc1)c1cccc(OCc2ccccc2)c1 has an inhibition of no more than 10% (Genome polyprotein, NS2B-NS3 protease (West Nile virus, UniProt P06935); enzyme activity, FRET; 50 µM, together with: substrate 50 µM).
CN(C(=O)n1cnc(-c2ccc[n+]([O-])c2)c1)C1CCCCC1 gave an inhibition of -2% (GRPR (Homo sapiens, UniProt P30550); radioligand binding; 50 µM).
CN(C)C1(CNC(=O)c2ccc3c(c2)CCN3C(=O)c2ccccc2)CCOCC1 has an inhibition of roughly 6% (SLC6A9 (Homo sapiens, UniProt P48067); transport current, inhibitor, two-electrode voltage clamp; Xenopus laevis oocytes; 10 µM).
